# Assay results gathered from unrelated publications.
# Parts stem from different laboratories: compare values within a part only. “And” joins repeats or separate records; there may be more than shown.
# Sequence of UniProt P00519 (whole entry, unmodified, looked up): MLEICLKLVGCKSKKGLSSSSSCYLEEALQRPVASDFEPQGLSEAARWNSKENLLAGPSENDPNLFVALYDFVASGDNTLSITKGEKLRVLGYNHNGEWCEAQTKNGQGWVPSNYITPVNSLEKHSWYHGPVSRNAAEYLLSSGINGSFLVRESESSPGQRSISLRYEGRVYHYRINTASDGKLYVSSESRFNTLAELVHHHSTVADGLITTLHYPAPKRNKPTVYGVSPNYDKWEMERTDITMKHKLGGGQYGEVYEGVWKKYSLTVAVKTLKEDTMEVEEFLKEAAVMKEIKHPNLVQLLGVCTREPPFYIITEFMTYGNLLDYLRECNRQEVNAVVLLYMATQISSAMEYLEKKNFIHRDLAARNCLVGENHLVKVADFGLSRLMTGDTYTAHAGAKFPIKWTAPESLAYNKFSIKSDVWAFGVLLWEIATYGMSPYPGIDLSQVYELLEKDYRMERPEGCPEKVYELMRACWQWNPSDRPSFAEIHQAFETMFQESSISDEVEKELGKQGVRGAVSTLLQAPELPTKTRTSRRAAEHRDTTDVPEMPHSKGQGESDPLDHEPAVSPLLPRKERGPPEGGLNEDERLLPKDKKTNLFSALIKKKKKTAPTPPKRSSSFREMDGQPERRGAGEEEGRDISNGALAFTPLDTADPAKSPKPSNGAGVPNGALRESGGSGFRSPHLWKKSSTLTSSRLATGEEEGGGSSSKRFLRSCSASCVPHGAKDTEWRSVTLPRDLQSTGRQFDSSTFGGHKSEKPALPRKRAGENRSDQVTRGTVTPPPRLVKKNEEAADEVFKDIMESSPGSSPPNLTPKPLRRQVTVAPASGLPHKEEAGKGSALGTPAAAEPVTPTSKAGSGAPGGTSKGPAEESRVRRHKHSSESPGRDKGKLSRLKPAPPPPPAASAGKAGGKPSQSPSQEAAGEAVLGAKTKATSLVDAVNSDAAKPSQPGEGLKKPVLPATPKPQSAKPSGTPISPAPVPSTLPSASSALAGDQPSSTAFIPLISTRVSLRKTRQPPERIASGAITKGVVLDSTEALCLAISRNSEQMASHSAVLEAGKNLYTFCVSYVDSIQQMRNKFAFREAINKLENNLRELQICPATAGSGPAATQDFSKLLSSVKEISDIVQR

# Series 1
# Cell line: A-375
# Tested at: 100 µM
# Time: 36 h
Compound,viability [%]
CC(N)CCCC(C)(C)O (stereo not drawn),79
N[C@H]1C(O)O[C@H](CO)[C@@H](O)[C@@H]1O (stereo partly drawn),107
C[C@]12C=CC(=O)N[C@@H]1CC[C@@H]1[C@@H]2CC[C@]2(C)[C@@H](C(=O)Nc3cc(C(F)(F)F)ccc3C(F)(F)F)CC[C@@H]12,61.5
Cc1ccc(Cl)c(Nc2ccccc2C(=O)O)c1Cl,35.3
CC(C)=CCC/C(C)=C/C=C/C(C)=C/C=C/C(C)=C/C=C/C=C(C)/C=C/C=C(C)/C=C/C=C(\C)CCC=C(C)C,95.4
O=C(c1cc(Cc2n[nH]c(=O)c3ccccc23)ccc1F)N1CCN(C(=O)C2CC2)CC1,79.4
COc1cc2nc(N3CCN(C(=O)c4ccco4)CC3)nc(N)c2cc1OC,0.419

# Series 2
# Target: Serine/threonine-protein kinase BRSK2 (BRSK2, Homo sapiens, UniProt Q8IWQ3)
# Sequence of UniProt Q8IWQ3 (whole entry, looked up): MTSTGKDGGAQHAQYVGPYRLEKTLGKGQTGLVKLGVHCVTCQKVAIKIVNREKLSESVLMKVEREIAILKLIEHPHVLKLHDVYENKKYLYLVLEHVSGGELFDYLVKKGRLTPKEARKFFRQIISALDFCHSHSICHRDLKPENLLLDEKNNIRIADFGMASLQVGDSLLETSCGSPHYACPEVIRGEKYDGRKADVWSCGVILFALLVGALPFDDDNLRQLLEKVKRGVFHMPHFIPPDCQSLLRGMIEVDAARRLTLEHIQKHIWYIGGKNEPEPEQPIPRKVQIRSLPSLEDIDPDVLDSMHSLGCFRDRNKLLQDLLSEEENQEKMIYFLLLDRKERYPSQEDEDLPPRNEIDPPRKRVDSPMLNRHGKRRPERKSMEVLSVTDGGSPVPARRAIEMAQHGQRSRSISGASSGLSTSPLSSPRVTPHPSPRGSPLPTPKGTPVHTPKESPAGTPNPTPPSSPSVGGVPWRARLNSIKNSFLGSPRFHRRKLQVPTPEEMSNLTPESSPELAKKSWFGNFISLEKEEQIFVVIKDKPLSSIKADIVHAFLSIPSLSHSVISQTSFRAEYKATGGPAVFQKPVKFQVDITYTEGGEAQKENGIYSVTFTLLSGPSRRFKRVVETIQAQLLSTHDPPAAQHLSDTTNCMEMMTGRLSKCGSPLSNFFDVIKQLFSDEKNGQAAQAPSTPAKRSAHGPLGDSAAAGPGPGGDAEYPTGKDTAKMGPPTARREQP
# Read-out: enzyme activity
# Mode: inhibitor
# Tested at: 0.5 µM
# Baseline: control
Structure (SMILES),remaining activity [%]
O=C1NC(=O)/C(=C/c2ccc3c(c2)OC(F)(F)O3)S1,90.9
NC(=O)c1ccc(-c2nc(-c3ccc4c(c3)OCCO4)c(-c3ccccn3)[nH]2)cc1,98.8
NC(=O)c1cccc(-c2cc(Nc3ccc(OC(F)(F)F)cc3)ncn2)c1,93
CC(C)(C)c1nc2c3cc[nH]c(=O)c3c3cc(F)ccc3c2[nH]1,21.4
c1cc(-c2cnn3cc(-c4ccc(OCCN5CCCCC5)cc4)cnc23)ccn1,67.9
O=C(O)/C=C/c1cc(Br)c(Br)c(Br)c1Br,91.1
CCN(CC)CCCCN1c2ccccc2Oc2ccc(Cl)cc21,107
CC(C)n1cnc2c(Nc3cccc(Cl)c3)nc(NCCO)nc21,95
O=C(c1ccccc1)c1ccc(N2CCOCC2)cc1O,95.5

# Series 3
# Target: DNA polymerase theta, ATPase domain (POLQ, Homo sapiens, UniProt O75417)
# Sequence of UniProt O75417 (whole entry, unmodified, looked up): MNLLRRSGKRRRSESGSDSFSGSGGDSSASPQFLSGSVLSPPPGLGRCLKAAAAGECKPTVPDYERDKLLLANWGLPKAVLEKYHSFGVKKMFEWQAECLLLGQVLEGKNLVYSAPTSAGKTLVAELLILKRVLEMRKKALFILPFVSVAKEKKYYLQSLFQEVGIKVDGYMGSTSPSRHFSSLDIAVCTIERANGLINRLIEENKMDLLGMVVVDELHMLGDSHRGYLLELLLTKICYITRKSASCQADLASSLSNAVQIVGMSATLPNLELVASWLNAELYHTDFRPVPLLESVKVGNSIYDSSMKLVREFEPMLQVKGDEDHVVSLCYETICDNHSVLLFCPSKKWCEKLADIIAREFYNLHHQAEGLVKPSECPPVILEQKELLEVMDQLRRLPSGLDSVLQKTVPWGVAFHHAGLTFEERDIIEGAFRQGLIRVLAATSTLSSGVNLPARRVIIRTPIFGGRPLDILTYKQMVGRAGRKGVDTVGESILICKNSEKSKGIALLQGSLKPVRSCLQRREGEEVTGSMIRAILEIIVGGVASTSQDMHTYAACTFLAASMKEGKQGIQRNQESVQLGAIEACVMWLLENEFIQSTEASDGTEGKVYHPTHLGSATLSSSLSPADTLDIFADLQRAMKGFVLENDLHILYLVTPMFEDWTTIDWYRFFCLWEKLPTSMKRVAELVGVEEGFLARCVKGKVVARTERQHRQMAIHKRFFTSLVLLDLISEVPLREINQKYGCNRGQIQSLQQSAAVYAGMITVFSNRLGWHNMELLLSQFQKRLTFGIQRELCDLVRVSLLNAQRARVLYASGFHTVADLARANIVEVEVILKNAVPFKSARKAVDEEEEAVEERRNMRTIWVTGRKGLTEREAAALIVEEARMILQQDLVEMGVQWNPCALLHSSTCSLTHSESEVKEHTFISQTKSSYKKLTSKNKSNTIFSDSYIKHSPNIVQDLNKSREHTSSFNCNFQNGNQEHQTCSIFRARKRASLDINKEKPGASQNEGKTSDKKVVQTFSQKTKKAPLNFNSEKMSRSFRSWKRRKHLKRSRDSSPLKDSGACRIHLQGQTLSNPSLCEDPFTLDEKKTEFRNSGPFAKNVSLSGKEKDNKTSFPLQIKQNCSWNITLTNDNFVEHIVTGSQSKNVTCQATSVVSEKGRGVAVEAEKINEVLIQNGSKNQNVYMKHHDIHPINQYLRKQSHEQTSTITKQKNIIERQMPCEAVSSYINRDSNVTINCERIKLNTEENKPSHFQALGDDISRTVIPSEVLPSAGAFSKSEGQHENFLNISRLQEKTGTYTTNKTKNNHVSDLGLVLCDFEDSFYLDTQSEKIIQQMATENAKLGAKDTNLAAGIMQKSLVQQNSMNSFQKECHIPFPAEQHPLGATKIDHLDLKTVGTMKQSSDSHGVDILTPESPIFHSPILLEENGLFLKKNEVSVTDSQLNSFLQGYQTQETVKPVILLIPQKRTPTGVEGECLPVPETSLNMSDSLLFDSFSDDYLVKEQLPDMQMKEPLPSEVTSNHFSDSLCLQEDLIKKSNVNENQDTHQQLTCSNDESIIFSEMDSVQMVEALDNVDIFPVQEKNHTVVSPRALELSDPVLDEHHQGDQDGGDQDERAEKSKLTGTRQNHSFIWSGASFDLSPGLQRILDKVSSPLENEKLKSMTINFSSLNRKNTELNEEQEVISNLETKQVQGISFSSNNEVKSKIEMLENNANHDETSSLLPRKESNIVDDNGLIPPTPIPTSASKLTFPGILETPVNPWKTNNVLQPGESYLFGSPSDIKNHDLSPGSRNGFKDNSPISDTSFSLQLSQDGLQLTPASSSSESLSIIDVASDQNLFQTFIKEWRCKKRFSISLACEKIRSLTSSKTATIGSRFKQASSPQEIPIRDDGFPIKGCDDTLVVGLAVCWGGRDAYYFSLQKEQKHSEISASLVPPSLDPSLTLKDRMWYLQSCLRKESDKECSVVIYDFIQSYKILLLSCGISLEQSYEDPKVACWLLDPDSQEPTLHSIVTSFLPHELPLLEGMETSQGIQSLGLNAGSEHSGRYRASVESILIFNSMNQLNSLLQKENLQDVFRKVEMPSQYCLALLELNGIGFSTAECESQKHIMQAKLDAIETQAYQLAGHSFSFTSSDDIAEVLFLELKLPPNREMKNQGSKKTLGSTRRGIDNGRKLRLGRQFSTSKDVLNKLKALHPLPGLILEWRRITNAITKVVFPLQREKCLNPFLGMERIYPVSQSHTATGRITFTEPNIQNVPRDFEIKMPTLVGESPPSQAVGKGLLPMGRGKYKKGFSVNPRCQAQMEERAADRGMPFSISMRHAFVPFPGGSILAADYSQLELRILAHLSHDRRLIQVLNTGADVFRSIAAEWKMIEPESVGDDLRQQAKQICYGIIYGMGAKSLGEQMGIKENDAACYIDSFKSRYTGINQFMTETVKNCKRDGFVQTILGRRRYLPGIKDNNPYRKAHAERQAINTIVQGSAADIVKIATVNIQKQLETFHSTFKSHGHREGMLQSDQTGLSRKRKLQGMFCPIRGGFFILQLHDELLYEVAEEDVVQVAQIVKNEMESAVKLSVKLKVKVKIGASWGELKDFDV
# Read-out: enzyme activity
# Mode: inhibitor
# Tested at: 77 µM
# Baseline: untreated
SMILES,remaining activity
C1CCC(C(CC2CCCCN2)C2CCCCC2)CC1 (stereo not drawn),108%
Cc1cnc(-c2cnc(NCCNc3ccc(C#N)cn3)nc2-c2ccc(Cl)cc2Cl)[nH]1,99.6%
COc1cccc(OC)c1OCCNCC1CSc2ccccc2O1 (stereo not drawn),100%
CCCCCC[C@@H]([C@@H](C)O)n1cnc2c(N)ncnc21,101%
NS(=O)(=O)c1cc2c(cc1Cl)NC(C(Cl)Cl)NS2(=O)=O (stereo not drawn),102% and 100%
CC(=O)[C@@]1(O)CC[C@H]2[C@@H]3CCC4=CC(=O)CCC4=C3[C@@H](c3ccc(N(C)C)cc3)C[C@@]21C,97.4%
NCc1ccccc1CC(=O)N[C@@H]1C(=O)N2C(C(=O)O)=C(CSc3nnnn3CC(=O)O)CS[C@H]12,97.4%
Clc1ccc(C(Cn2ccnc2)OCc2ccc(Sc3ccccc3)cc2)c(Cl)c1 (stereo not drawn),99.4%
C/C(=C\C(=O)OCCCCCCCCC(=O)O)C[C@@H]1OC[C@H](C[C@@H]2O[C@H]2[C@@H](C)[C@H](C)O)[C@@H](O)[C@H]1O,95.1%
Cn1nc2c3c(cccc31)C(=O)c1ccccc1-2,113%

# Other studies, line by line
SMILES,target,technique,tested at,notes,baseline,endpoint,result
"COc1ccc2c(c1)O[C@H](c1ccc(OC)c(OC)c1)C[C@@H]2NC(=O)C1(c2ccc3c(c2)OC(F)(F)O3)CC1 (single isomer, unassigned)","Tyrosine-protein kinase ABL1 (ABL1, Homo sapiens, UniProt P00519, F317I)",KINOMEscan,1 µM,"F317I mutant, nonphosphorylated",control,remaining binding,93%

# For quick reference, copied from above (series 2):
Structure (SMILES),remaining activity [%]
NC(=O)c1cccc(-c2cc(Nc3ccc(OC(F)(F)F)cc3)ncn2)c1,93
CC(C)(C)c1nc2c3cc[nH]c(=O)c3c3cc(F)ccc3c2[nH]1,21.4
c1cc(-c2cnn3cc(-c4ccc(OCCN5CCCCC5)cc4)cnc23)ccn1,67.9
